Experimental data of several laboratories.
Numbers after ± are the reported error.
Organism: Candida albicans

Molecule | read-out | method | strain | time | temperature | setting | MIC
CCOC(=O)c1c(N)csc1-c1cn(-c2ccccc2)nc1-c1ccc(C)cc1 | – | broth microdilution | clinical urinary isolate | – | – | compound gamma-irradiated 15 kGy | 0.125 ± 0.4 µg/mL
Cl.N=C(N)N/N=C/c1ccc(-c2ccc(/C=N/Nc3ccccc3Cl)cc2)cc1 | – | – | seven strains | – | – | – | 1 to 3.9 µg/mL
pneumocandin H | – | broth microdilution, resazurin | ATCC 90028 | 24 h | 35 °C | – | 1.6 µg/mL
O=C(/C=C/c1ccc(O)c(O)c1)O[C@@H]1C[C@](O)(C(=O)O)C[C@@H](O)[C@H]1O | microbial growth | broth dilution | – | 48 h | – | – | 25 µM
CCc1nc(N)nc(N)c1C#CC(C)c1ccc(-c2ccc(C#N)cc2)cc1OC (centres unmarked) | microbial growth | resazurin | SC5314 | – | – | – | 1.8 to 7.5 µg/mL
Cc1ccc(C(C)C)cc1.Cc1ccc(C(C)C)cc1.[Cl][Ru][Cl].[Cl][Ru][Cl] | – | broth microdilution | ATCC 10231 | 24 to 48 h | 37 °C | – | 1000 µg/mL
COc1ccc(-c2nc3cc(-c4nc5cc(N6CCN(C)CC6)ccc5[nH]4)ccc3[nH]2)cc1 | microbial growth | broth dilution | – | – | – | – | 3.9 to 7.8 µg/mL
pneumocandin J | – | broth microdilution, resazurin | ATCC 90028 | 24 h | 35 °C | – | 1.6 µg/mL
C/C(=N\NC(=N)N)c1ccc(/C(C)=N/NC(=N)N)cc1.Cl.Cl | – | – | seven strains | – | – | – | ≥ 31.3 µg/mL
pneumocandin A0 | – | broth microdilution, resazurin | ATCC 90028 | 24 h | 35 °C | – | 0.8 µg/mL
Cl.Cl.N=C(N)N/N=C/c1ccc(-c2cccc(/C=N/NC(=N)N)c2)cc1 | – | – | seven strains | – | – | – | 1 to 3.9 µg/mL

For quick reference, copied from above:
Molecule | read-out | method | strain | time | temperature | setting | MIC
pneumocandin A0 | – | broth microdilution, resazurin | ATCC 90028 | 24 h | 35 °C | – | 0.8 µg/mL
